{"data": "Experimental data of several laboratories", "organism": "herpes simplex virus 1", "note": "Lines come from different studies, so protocols differ. ± marks the error that the study gave."}
{"SMILES": "CCOC(=O)C(C)NP(=O)(COC(CF)CN1CN2C=C(c3ccccc3)NC2=NC1=O)NC(C)C(=O)OCC (stereo not shown)", "effect on": "cytopathic effect", "cell line": "HEL", "strain": "KOS, TK-deficient, acyclovir-resistant", "EC50 [µM]": "> 100"}
{"SMILES": "Cc1ccc(S(=O)(=O)N2C(=O)CSC2c2cccc([N+](=O)[O-])c2)cc1 (stereo not shown)", "effect on": "viral cytopathicity", "cell line": "HEL", "strain": "KOS", "EC50 [µM]": "> 100"}
{"SMILES": "C[C@H](NP(=O)(OCCOCn1cnc2c(=O)[nH]c(N)nc21)Oc1cccc2ccccc12)C(=O)OC(C)(C)C (stereo partly shown)", "effect on": "cytopathic effect", "cell line": "HEL fibroblasts", "strain": "KOS", "EC50 [µM]": "≥ 50"}
{"SMILES": "Nc1ccn(C[C@@H](CO)OCP(=O)(O)O)c(=O)n1", "effect on": "cytopathic effect", "cell line": "HEL", "strain": "KOS, TK-deficient, acyclovir-resistant", "EC50 [µM]": "1.3 ± 0.3"}
{"SMILES": "O=c1[nH]c(=O)c2ncn(C[C@@H](CF)OCP(=O)(O)O)c2[nH]1", "effect on": "cytopathic effect", "cell line": "HEL", "strain": "KOS TK- acyclovir-resistant", "EC50 [µM]": "> 329"}
{"SMILES": "Cc1ccc(S(=O)(=O)N2C(=O)CSC2c2ccc(Cl)cc2)cc1 (stereo not shown)", "effect on": "viral cytopathicity", "cell line": "HEL", "strain": "KOS", "EC50 [µM]": "> 100"}
{"SMILES": "NC(=O)c1ncn([C@@H]2O[C@H](CO)[C@@H](O)[C@H]2O)n1", "effect on": "viral replication", "cell line": "HEL", "strain": "TK- KOS ACV-resistant", "EC50 [µM]": 125}
{"SMILES": "Nc1nc2c(ncn2COC(CO)CO)c(=O)[nH]1", "effect on": "viral replication", "cell line": "HEL cells", "strain": "KOS ACV-resistant TK-deficient", "EC50 [µM]": 58}
{"SMILES": "O=c1[nH]c(=O)c2ncn(C[C@@H](CO)OCP(=O)(O)O)c2[nH]1", "effect on": "cytopathic effect", "cell line": "HEL", "strain": "KOS TK- acyclovir-resistant", "EC50 [µM]": 20}
{"SMILES": "Nc1ncn(C[C@@H](CF)OCP(=O)(O)O)c(=O)n1", "effect on": "cytopathic effect", "cell line": "HEL", "strain": "KOS, TK-deficient, acyclovir-resistant", "EC50 [µM]": "> 100"}
{"SMILES": "Cc1ccc(S(=O)(=O)N2C(=O)CSC2c2ccc([N+](=O)[O-])cc2)cc1 (stereo not shown)", "effect on": "viral cytopathicity", "cell line": "HEL", "strain": "KOS TK-deficient acyclovir-resistant", "EC50 [µM]": "> 100"}
{"SMILES": "O=c1nc(NC2CC2)c2ncn(CCOCP(=O)(O)O)c2[nH]1", "effect on": "cytopathic effect", "cell line": "HEL", "strain": "KOS TK- acyclovir-resistant", "EC50 [µM]": "> 100"}
{"SMILES": "Nc1ncn(CC(OCP(=O)(O)O)C(F)(F)F)c(=O)n1 (stereo not shown)", "effect on": "cytopathic effect", "cell line": "HEL", "strain": "KOS, TK-deficient, acyclovir-resistant", "EC50 [µM]": "> 100"}
{"SMILES": "Cc1ccc(S(=O)(=O)N2C(=O)CSC2c2ccccc2)cc1 (stereo not shown)", "effect on": "viral cytopathicity", "cell line": "HEL", "strain": "KOS TK-deficient acyclovir-resistant", "EC50 [µM]": "> 100"}
{"SMILES": "Nc1nc(O)c2ncn(COC(CO)CO)c2n1", "effect on": "cytopathic effect", "cell line": "HEL", "strain": "KOS, TK-deficient, acyclovir-resistant", "EC50 [µM]": "1.1 ± 0.7"}
{"SMILES": "CCCCCCCCCCCCCCCCOCCCOP(=O)(O)COCCn1cnc2c(=O)[nH]c(=O)[nH]c21", "effect on": "cytopathic effect", "cell line": "HEL", "strain": "KOS TK- acyclovir-resistant", "EC50 [µM]": 2}
